Assay results from different studies.
Lines come from different studies, so protocols differ. ± gives the spread as reported.

For `O=C(CN1CCN(CC(=O)NCP(=O)([O-])[O-])CCN(CC(=O)NCP(=O)([O-])[O-])CCN(CC(=O)NCP(=O)([O-])[O-])CC1)NCP(=O)([O-])[O-].[Gd+3]`, the elimination half-life was 12.8 min (Sprague-Dawley rats, blood; intravenous, 35 µmol/kg, two-compartment model, added: GdDTPA 68 µmol/kg co-injected).
For `CC(C)C[C@@H](NC(=O)[C@@H](CCCNC(=N)N)NC(=O)[C@@H](Cc1c[nH]cn1)NC(=O)[C@@H](Cc1c[nH]c2ccccc12)NC(=O)[C@@H](Cc1c[nH]cn1)NC(=O)[C@@H](Cc1ccccc1)NC(=O)[C@H](NC(=O)[C@@H](Cc1ccc(O)cc1)NC(=O)CNC(=O)CNC(=O)CCOCCOCCOCCNC(=O)CN1CCN(CC(=O)O)CCN(CC(=O)O)CC1)[C@H](C)O)C(=O)N[C@H](CC(N)=O)C(=O)N1CCC[C@@H]1C(=O)O` [gallium-68 labelled], the absorbed dose was 0.00835 ± 5.77e-05 mSv/MBq (human male, from C57BL/6 mouse, red marrow).
For `O=C(O)CC[C@H](NC(=O)[C@H](CCC(=O)O)NC(=O)[C@H](CCC(=O)O)NC(=O)[C@H](CCC(=O)O)NC(=O)[C@H](CCC(=O)O)NC(=O)CNC(=O)[C@H](CCC(=O)O)NC(=O)CNC(=O)[C@H](CCC(=O)O)NC(=O)[C@@H](Cc1ccccc1)NC(=O)[C@@H](Cc1ccccc1)NC(=O)Cc1ccc2ccccc2c1)C(=O)O`, “first negative CD peak wavelength” read 202 nm (circular dichroism; PBS; 500 µM, pH 7, above CMC).
`CSCC[C@H](N)C(=O)N[C@@H](C)C(=O)N[C@@H](Cc1c[nH]c2ccccc12)C(=O)N[C@@H](Cc1c[nH]cn1)C(=O)N[C@@H](CC(=O)O)C(=O)N[C@@H](CC(=O)O)C(=O)N[C@@H](CCC(=O)O)C(=O)N[C@@H](CCC(=O)O)C(=O)N[C@@H](Cc1ccccc1)C(=O)N[C@@H](C)C(=O)N[C@@H](CCCNC(=N)N)C(=O)N[C@@H](CCCNC(=N)N)C(=O)N[C@@H](CCCNC(=N)N)C(=O)N[C@@H](CCCNC(=N)N)C(=O)NCCCCCC(=O)NCCCCC(NC(=O)CCCCCNC(=O)[C@H](CCCNC(=N)N)NC(=O)[C@H](CCCNC(=N)N)NC(=O)[C@H](CCCNC(=N)N)NC(=O)[C@H](CCCNC(=N)N)NC(=O)[C@H](C)NC(=O)[C@H](Cc1ccccc1)NC(=O)[C@H](CCC(=O)O)NC(=O)[C@H](CCC(=O)O)NC(=O)[C@H](CC(=O)O)NC(=O)[C@H](CC(=O)O)NC(=O)[C@H](Cc1c[nH]cn1)NC(=O)[C@H](Cc1c[nH]c2ccccc12)NC(=O)[C@H](C)NC(=O)[C@@H](N)CCSC)C(=O)NCCCCC(NC(=O)C(CCCCNC(=O)CCCCCNC(=O)[C@H](CCCNC(=N)N)NC(=O)[C@H](CCCNC(=N)N)NC(=O)[C@H](CCCNC(=N)N)NC(=O)[C@H](CCCNC(=N)N)NC(=O)[C@H](C)NC(=O)[C@H](Cc1ccccc1)NC(=O)[C@H](CCC(=O)O)NC(=O)[C@H](CCC(=O)O)NC(=O)[C@H](CC(=O)O)NC(=O)[C@H](CC(=O)O)NC(=O)[C@H](Cc1c[nH]cn1)NC(=O)[C@H](Cc1c[nH]c2ccccc12)NC(=O)[C@H](C)NC(=O)[C@@H](N)CCSC)NC(=O)CCCCCNC(=O)[C@H](CCCNC(=N)N)NC(=O)[C@H](CCCNC(=N)N)NC(=O)[C@H](CCCNC(=N)N)NC(=O)[C@H](CCCNC(=N)N)NC(=O)[C@H](C)NC(=O)[C@H](Cc1ccccc1)NC(=O)[C@H](CCC(=O)O)NC(=O)[C@H](CCC(=O)O)NC(=O)[C@H](CC(=O)O)NC(=O)[C@H](CC(=O)O)NC(=O)[C@H](Cc1c[nH]cn1)NC(=O)[C@H](Cc1c[nH]c2ccccc12)NC(=O)[C@H](C)NC(=O)[C@@H](N)CCSC)C(N)=O` (stereo partly drawn): “mean tissue distribution” 0.24% (C57BL/6 mouse female, ovary; dose not given, 3 h; relative to: total).
`N=C(N)NCCC[C@@H](NC(=O)[C@H](N)Cc1c[nH]c2ccccc12)C(=O)N[C@H](CCCCN)C(=O)N[C@H](Cc1c[nH]c2ccccc12)C(=O)N[C@H](CCCNC(=N)N)C(=O)N[C@H](CCCCN)C(=O)N[C@H](Cc1c[nH]c2ccccc12)C(=O)N[C@H](CCCNC(=N)N)C(=O)N[C@H](CCCCN)C(=O)N[C@H](Cc1c[nH]c2ccccc12)C(=O)N[C@H](CCCNC(=N)N)C(=O)N[C@H](CCCCN)C(N)=O` has a survival of 75% (mouse; intraperitoneal, 40 mg/kg single dose, day 7).
The total cholesterol of `CCCCCCCCCCCCCCCC(=O)N[C@@H](CCC(=O)NCCOCCOCCC(=O)NCCOCCOCCC(=O)NCCCC[C@H](NC(=O)[C@H](CC(=O)O)NC(=O)[C@H](CC(C)C)NC(=O)[C@H](Cc1ccc(O)cc1)NC(=O)[C@H](CCCCN)NC(=O)[C@H](CO)NC(=O)[C@H](Cc1ccc(O)cc1)NC(=O)[C@H](CC(=O)O)NC(=O)[C@H](CO)NC(=O)[C@@H](NC(=O)[C@H](Cc1ccccc1)NC(=O)[C@@H](NC(=O)CNC(=O)[C@H](CCC(N)=O)NC(=O)[C@@H](CO)NC(=O)[C@@H](N)Cc1c[nH]cn1)[C@@H](C)O)[C@@H](C)O)C(=O)N[C@@H](CCCNC(=N)N)C(=O)N[C@@H](CCCNC(=N)N)C(=O)N[C@@H](C)C(=O)N[C@@H](CCC(N)=O)C(=O)N[C@@H](CC(=O)O)C(=O)N[C@@H](Cc1ccccc1)C(=O)N[C@H](C(=O)N[C@@H](CCC(N)=O)C(=O)N[C@@H](Cc1c[nH]c2ccccc12)C(=O)N[C@@H](CC(C)C)C(=O)N[C@@H](CC(C)C)C(=O)N[C@@H](CC(N)=O)C(=O)N[C@H](C(=O)NCC(=O)NCC(=O)N1CCC[C@H]1C(=O)N[C@@H](CO)C(=O)N[C@@H](CO)C(=O)NCC(=O)N[C@@H](C)C(=O)N1CCC[C@H]1C(=O)N1CCC[C@H]1C(=O)N1CCC[C@H]1C(=O)N[C@@H](CO)C(N)=O)[C@@H](C)O)C(C)C)C(=O)O` is reported as 2.11 ± 0.26 mmol/L (rhesus monkey, male; subcutaneous, 300 µg/kg once daily, 28 days).
`CC(C)[C@H](NC(=O)[C@H](Cc1c[nH]c2ccccc12)NC(=O)[C@H](CCCNC(=N)N)NC(=O)[C@H](CCCNC(=N)N)NC(=O)[C@@H](NC(=O)[C@@H](NC(=O)[C@H](CCCNC(=N)N)NC(=O)[C@@H](NC(=O)[C@@H](NC(=O)[C@H](CCCNC(=N)N)NC(=O)[C@H](CCCNC(=N)N)NC(=O)[C@@H](NC(=O)[C@H](Cc1c[nH]c2ccccc12)NC(=O)[C@H](CCCNC(=N)N)NC(=O)[C@H](CCCNC(=N)N)NC(=O)[C@@H](NC(=O)[C@H](CCCNC(=N)N)NC(=O)[C@H](CCCNC(=N)N)NC(=O)[C@@H](NC(=O)[C@H](Cc1c[nH]c2ccccc12)NC(=O)[C@H](CCCNC(=N)N)NC(=O)[C@@H](N)CCCNC(=N)N)C(C)C)C(C)C)C(C)C)C(C)C)C(C)C)C(C)C)C(C)C)C(=O)N[C@@H](CCCNC(=N)N)C(=O)N[C@@H](CCCNC(=N)N)C(=O)O` has an organ weight of 0.8 ± 0.03% (item: lung; mice; intravenous, 20 mg/kg, after 2 doses, recovery; relative to: body weight).
With `O=C(NCc1ccc(Cl)cn1)C(=O)C(Cc1ccccc1)NC(=O)C1CC(F)CN1C(=O)C(NC(=O)C1CCC(F)(F)CC1)C1CCCCC1` (stereo not drawn) the AUC(0-t) was 6870 ng·h/mL (dog; oral, 25 mg/kg).
`C[C@@H]1COCCN1c1nc(NCc2cccnc2C(F)(F)F)c2cccnc2n1` has an intrinsic clearance of 3.4 µL/min/10⁶ cells (human hepatocytes).
`O=C1NC2(CC2)COc2ncc(F)cc2[C@H]2COCCN2c2ccn3ncc1c3n2` — result for “serum hepatic lipase activity”: 3.3 ± 0.2 U/L (Sprague-Dawley rat, female, serum; oral, 5 mg/kg/day, end of recovery, 4-week subacute toxicity).
The CC50 of `CC(=O)Oc1ccc(NC(=O)CCc2ccccc2)c(C(=O)O)c1` is reported as greater than 122 µM (cytotoxicity, CellTiter-Glo; primary brown adipocytes, mouse C57BL/6; 48 h).
`CC[C@H](C)[C@H](NC(=O)[C@H](CCCCN)NC(=O)CNC(=O)[C@H](CC(C)C)NC(=O)[C@H](Cc1ccccc1)NC(=O)[C@H](CCCCN)NC(=O)[C@H](CO)NC(=O)[C@H](Cc1ccccc1)NC(=O)[C@H](Cc1c[nH]c2ccccc12)NC(=O)[C@H](CCC(N)=O)NC(=O)[C@@H](NC(=O)[C@H](Cc1ccccc1)NC(=O)CCCCCNC(=O)CN1CCN(CC(=O)O)CCN(CC(=O)O)CCN(CC(=O)O)CC1)C(C)C)C(=O)N[C@@H](CCC(=O)O)C(=O)N1CCC[C@H]1C(=O)N[C@@H](CC(=O)O)C(=O)N[C@H](C(=O)N[C@@H](CO)C(=O)N[C@@H](CCC(N)=O)C(=O)N[C@H](C(=O)N[C@@H](CCC(N)=O)C(=O)N[C@@H](CC(=O)O)C(=O)N1CCC[C@H]1C(=O)N[C@@H](CC(N)=O)C(=O)N[C@@H](CC(=O)O)C(=O)N[C@@H](CCC(N)=O)C(=O)N[C@@H](Cc1ccc(O)cc1)C(=O)N[C@@H](CCC(=O)O)C(=O)N1CCC[C@H]1C(=O)N[C@@H](Cc1ccccc1)C(=O)O)C(C)C)C(C)C` [copper-64 labelled] has a tissue uptake of 20.3 ± 4.2 %ID/g (C57BL/6 mice, kidneys; added: LPS 0.1 mg/kg intratracheal).
